Assay results from different studies.
Parts stem from different laboratories: compare values within a part only. Positions count from the first letter of the parent shown.

Sample 1 — technique: universal PBM; form: double-stranded DNA, one strand shown; matrix: in vitro; tested at: 600 nM; direction: higher = stronger binding
Target: Sal-like protein 4, full length isoform A (SALL4, Homo sapiens, UniProt Q9UJQ4, residues 1-1053)
Chain of UniProt Q9UJQ4 (whole entry, looked up): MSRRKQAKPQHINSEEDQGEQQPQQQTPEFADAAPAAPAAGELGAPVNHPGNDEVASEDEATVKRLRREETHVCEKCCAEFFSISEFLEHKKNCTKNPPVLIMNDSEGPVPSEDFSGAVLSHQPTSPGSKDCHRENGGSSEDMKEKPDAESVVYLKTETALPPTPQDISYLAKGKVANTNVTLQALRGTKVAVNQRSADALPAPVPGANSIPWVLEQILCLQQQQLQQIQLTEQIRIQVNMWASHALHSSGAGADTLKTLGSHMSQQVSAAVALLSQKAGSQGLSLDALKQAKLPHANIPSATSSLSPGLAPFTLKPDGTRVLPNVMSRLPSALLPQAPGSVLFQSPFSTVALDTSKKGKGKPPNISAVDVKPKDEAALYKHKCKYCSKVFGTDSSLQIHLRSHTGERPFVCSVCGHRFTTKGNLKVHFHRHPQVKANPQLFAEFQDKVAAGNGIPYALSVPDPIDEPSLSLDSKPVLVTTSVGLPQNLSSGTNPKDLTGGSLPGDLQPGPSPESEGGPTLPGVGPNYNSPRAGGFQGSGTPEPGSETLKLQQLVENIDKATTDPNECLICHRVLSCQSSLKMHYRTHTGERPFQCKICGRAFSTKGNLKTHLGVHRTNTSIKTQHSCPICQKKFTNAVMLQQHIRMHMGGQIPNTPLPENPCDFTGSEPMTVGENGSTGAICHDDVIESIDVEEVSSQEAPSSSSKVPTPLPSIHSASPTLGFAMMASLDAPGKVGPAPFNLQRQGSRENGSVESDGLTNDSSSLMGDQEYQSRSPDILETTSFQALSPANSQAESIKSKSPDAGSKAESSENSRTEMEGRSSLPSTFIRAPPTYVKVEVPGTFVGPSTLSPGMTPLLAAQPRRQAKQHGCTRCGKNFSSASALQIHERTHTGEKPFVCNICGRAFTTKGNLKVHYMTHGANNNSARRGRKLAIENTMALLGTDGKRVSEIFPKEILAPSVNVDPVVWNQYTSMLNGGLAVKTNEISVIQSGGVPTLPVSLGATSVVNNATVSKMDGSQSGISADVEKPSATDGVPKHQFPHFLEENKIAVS
Notes: 8-mer, flanks averaged, mean of replicates
With `CGATGTAC` the E-score was 0.101.
`ATACCCGC` gave an E-score of -0.141.
`ATTACCGC` gave an E-score of 0.163.
With `GACGCGTC` the E-score was -0.323.
`ACAATGGC` gave an E-score of -0.0257.
The E-score of `CCCCGAGA` is reported as -0.169.
With `AGGCGTTA` the E-score was -0.0015.

Sample 2 — technique: RNA Bind-n-Seq; form: RNA; matrix: in vitro; tested at: not given; baseline: input RNA pool; direction: higher = stronger binding
Target: RING finger protein unkempt homolog, zinc fingers 1-6, GST-SBP tag (UNK, Homo sapiens, UniProt Q9C0B0, residues 30-357)
Notes: RNA with constant flanks, human and mouse sites, ends assumed
Constant ends, left off below: GGGAGUUCUACAGUCCGACGAUC … CAACAGAGGAUUGAGCAUCA
Target sequence (chain): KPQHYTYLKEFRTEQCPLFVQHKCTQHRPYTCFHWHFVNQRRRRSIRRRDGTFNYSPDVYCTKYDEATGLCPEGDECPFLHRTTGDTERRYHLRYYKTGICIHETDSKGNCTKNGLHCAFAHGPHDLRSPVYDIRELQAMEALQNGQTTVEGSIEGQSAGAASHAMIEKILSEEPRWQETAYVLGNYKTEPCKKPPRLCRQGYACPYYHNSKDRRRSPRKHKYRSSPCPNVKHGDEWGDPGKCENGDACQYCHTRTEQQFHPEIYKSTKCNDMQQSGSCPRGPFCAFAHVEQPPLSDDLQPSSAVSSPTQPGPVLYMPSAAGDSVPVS
For `GCAUGGCUGACCAACUGACUGAAGAGCAGAUUGCAGAGUUCAAAGAAGCUUUCUCACUAUUUGACAAGGACGGGGAUGGGACAAUAACAACAAAGGAGCUGGGGACAGUGAUGAGGUCCC`, the bound/input enrichment was 0.425 ratio.
The bound/input enrichment of `GCCUUCUUCAGCACCCGCCUGAUCGAGGCCGGCGAGCAGCUCGGGUUUGACUAUGGAGAGCGCUUCUGGGACAUCAAAGGCAAGCUCUUCAGCUGCCGCUGCGGCUCCCCCAAGUGCCGG` is reported as 0.116 ratio.
For `GUCAUUGACAGGAAGCGUCACCAUGUCCUGCAGACAGCUCACCCCUCCCCGCUGUCGGUGCACAGAGGGUUCCUGGGAUGCAGACAUUUUUCUAAAGCCAAUGAACUGCUCCAGAAGUCU`, the bound/input enrichment was 0.13 ratio.
`GAGAAAGAAAUCCCACCAAAGGAGAUGGAGAAAUCAAAAAUUAAACGACUGUAUAAAUUAUUAGAGAUCUGGAUCGAGUUUGGGCGCAUCAAACUCCUUCAAGGUUAUCAUCCGAACGAC` has a bound/input enrichment of 0.429 ratio.
The bound/input enrichment of `UGCAGAAGACCCUCCGGCGGGCCAUUGGCAAGAGCCGCCCCUACUUUGAGCUCAAGGCCCAGUUCAGCCAAAUCCUGGAGGAGCACAAGGCCAAGGUGACAGAACUGGAGCAGCAGGUGG` is reported as 0.0981 ratio.
With `AAAAAAAAGCAAAUCAGAAAACCCACGGUUUUUCUUUUUUUCUUUUUUUCUUUUUUUCUUUUUUUGCUUUAAAACAAAGGGAAAAAAGAGUUUAAACAAAAAACCCACAAUUGAACUUCC` the bound/input enrichment was 0.245 ratio.

Mixed results — CCNE2: CCNE2, cyclin fold, Cln2 fusion (human)
P1: PKN2 docking peptide (human); VSAVRKLDFSDTM; partner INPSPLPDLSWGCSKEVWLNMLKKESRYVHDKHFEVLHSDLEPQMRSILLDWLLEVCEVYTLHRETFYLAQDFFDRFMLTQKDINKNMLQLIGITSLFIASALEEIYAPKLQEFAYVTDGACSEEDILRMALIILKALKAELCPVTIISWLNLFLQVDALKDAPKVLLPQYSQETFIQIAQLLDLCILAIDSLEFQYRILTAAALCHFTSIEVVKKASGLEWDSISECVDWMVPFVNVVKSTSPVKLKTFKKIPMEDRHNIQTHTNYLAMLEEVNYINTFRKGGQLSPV
For `P1 L7M`, “normalised enrichment score” read 0.397 (CCNE2; yeast growth competition, sequencing; yeast; strong parent motif; baseline: not given, higher = stronger binding).
`PhoQ, residues 284 288 289 292 302 303 SVHLDV` gave a fold induction of 14.9 (PhoP, residues 12 14 15 18 19 NFCKL (Escherichia coli, UniProt P23836); Sort-seq, refers to: YFP reporter; E. coli; PhoQ-PhoP variant library, together with: 10 µM Mg2+; baseline: high Mg2+ state, higher = stronger signaling).
`P1 K6W`: “normalised enrichment score” 2.41 (CCNE2; yeast growth competition, sequencing; yeast; strong parent motif; baseline: not given, higher = stronger binding).
For `GSPLAKAFTSTGL`, the binding score was -0.355 (Saccharomyces cerevisiae; peptide binding, yeast competitive growth sequencing; peptide, cyclin-Cln2 fusion strain; concentration not given, library 1; direction not given).
`P1 R5M`: “normalised enrichment score” 0.445 (CCNE2; yeast growth competition, sequencing; yeast; strong parent motif; baseline: not given, higher = stronger binding).

A few entries again (sample 2):
`GAGAAAGAAAUCCCACCAAAGGAGAUGGAGAAAUCAAAAAUUAAACGACUGUAUAAAUUAUUAGAGAUCUGGAUCGAGUUUGGGCGCAUCAAACUCCUUCAAGGUUAUCAUCCGAACGAC` has a bound/input enrichment of 0.429 ratio.
With `AAAAAAAAGCAAAUCAGAAAACCCACGGUUUUUCUUUUUUUCUUUUUUUCUUUUUUUCUUUUUUUGCUUUAAAACAAAGGGAAAAAAGAGUUUAAACAAAAAACCCACAAUUGAACUUCC` the bound/input enrichment was 0.245 ratio.
